{"data": "Measurements pooled from the literature", "note": "Parts stem from different laboratories: compare values within a part only.", "sequence of UniProt P51955 (whole entry, looked up)": "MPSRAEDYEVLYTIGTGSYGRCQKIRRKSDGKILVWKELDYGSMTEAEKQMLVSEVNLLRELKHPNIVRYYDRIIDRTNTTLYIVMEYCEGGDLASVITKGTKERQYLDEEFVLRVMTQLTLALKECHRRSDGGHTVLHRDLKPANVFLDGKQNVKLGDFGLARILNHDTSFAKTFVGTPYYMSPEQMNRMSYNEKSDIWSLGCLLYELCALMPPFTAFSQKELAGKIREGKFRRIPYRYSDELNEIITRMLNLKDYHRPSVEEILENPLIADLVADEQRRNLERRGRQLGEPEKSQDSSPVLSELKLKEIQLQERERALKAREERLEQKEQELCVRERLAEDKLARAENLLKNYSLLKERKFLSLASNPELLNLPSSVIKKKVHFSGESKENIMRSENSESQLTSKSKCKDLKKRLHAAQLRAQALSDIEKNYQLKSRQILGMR", "sequence of UniProt P36897 (whole entry, looked up)": "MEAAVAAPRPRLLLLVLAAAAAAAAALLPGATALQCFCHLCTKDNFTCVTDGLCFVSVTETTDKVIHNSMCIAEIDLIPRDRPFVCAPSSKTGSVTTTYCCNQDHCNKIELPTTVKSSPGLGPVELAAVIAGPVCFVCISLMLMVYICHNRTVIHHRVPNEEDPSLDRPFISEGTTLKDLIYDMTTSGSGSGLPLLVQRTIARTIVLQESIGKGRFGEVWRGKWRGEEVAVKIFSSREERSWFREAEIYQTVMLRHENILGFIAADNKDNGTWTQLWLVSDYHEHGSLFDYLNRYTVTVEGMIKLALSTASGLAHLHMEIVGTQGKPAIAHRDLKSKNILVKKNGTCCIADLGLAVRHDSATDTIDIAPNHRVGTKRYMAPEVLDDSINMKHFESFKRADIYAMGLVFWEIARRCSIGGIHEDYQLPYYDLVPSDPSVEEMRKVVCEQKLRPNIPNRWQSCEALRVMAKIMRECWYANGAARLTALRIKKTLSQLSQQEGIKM", "sequence of UniProt Q6DT37 (whole entry, looked up)": "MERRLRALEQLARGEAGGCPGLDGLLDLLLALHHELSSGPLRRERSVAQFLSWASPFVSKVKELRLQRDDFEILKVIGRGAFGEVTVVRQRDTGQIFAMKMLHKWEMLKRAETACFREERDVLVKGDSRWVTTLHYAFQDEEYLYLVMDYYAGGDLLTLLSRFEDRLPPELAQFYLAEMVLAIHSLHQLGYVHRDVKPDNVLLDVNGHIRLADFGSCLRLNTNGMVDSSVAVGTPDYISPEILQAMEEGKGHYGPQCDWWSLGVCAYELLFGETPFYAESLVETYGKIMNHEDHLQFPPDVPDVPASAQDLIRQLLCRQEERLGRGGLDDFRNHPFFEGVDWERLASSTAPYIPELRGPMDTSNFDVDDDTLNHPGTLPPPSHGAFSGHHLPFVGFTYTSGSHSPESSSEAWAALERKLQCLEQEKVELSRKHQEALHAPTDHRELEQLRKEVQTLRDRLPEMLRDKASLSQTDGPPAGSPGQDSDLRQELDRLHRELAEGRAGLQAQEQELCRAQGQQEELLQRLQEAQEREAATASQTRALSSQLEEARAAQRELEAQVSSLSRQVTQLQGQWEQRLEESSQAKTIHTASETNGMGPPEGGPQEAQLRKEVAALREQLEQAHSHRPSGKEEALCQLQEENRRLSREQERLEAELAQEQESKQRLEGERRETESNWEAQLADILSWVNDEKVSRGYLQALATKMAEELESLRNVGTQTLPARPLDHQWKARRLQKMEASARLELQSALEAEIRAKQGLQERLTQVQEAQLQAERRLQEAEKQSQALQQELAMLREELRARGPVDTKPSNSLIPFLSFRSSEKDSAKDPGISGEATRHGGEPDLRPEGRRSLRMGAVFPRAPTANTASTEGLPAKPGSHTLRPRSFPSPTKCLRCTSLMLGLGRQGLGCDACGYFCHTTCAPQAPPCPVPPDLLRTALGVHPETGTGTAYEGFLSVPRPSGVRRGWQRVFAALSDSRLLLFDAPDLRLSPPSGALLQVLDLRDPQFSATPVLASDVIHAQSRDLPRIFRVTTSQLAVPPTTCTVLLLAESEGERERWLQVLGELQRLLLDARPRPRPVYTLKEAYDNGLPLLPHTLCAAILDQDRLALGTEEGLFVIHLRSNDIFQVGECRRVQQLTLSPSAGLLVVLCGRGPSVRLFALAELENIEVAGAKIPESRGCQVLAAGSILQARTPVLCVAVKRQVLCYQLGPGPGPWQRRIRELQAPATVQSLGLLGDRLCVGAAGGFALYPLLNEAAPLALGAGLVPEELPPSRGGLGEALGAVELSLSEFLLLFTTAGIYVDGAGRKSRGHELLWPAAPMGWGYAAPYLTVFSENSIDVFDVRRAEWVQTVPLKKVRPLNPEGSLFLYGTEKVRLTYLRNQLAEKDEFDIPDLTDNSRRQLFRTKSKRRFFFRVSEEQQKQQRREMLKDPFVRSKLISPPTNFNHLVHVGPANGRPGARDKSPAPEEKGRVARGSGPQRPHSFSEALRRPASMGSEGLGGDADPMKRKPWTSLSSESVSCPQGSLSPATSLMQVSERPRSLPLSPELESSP", "sequence of UniProt Q9BRS2 (whole entry, looked up)": "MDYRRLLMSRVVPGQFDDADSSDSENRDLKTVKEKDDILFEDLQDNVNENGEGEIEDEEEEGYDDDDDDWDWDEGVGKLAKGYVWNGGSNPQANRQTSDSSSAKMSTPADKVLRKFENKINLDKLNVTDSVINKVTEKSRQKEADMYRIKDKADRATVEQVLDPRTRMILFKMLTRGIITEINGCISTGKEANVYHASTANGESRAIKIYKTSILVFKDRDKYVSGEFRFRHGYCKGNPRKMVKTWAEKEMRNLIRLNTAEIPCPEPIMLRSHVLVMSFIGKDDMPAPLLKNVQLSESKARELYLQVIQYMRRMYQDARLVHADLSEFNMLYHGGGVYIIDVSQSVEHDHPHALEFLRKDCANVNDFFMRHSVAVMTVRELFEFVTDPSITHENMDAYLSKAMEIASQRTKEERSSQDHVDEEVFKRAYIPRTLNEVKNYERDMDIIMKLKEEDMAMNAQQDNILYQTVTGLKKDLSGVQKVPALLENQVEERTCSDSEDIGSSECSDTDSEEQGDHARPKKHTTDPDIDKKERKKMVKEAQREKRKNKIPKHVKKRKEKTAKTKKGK", "sequence of UniProt Q92630 (whole entry, looked up)": "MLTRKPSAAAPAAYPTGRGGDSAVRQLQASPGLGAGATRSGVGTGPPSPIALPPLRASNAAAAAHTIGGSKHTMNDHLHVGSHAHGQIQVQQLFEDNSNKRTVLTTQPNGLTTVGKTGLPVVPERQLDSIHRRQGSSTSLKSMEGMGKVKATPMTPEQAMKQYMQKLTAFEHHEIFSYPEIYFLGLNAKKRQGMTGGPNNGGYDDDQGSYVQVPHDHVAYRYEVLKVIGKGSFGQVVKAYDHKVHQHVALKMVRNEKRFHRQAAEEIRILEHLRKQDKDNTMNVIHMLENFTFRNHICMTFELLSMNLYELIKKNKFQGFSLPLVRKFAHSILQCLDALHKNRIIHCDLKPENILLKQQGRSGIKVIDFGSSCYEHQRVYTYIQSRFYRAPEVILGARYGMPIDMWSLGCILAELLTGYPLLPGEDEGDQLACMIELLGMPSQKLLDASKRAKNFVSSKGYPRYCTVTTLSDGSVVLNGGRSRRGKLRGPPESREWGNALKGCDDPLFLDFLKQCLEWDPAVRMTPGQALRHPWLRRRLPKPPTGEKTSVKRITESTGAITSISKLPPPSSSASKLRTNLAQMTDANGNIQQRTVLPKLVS", "sequence of UniProt P16234 (whole entry, looked up)": "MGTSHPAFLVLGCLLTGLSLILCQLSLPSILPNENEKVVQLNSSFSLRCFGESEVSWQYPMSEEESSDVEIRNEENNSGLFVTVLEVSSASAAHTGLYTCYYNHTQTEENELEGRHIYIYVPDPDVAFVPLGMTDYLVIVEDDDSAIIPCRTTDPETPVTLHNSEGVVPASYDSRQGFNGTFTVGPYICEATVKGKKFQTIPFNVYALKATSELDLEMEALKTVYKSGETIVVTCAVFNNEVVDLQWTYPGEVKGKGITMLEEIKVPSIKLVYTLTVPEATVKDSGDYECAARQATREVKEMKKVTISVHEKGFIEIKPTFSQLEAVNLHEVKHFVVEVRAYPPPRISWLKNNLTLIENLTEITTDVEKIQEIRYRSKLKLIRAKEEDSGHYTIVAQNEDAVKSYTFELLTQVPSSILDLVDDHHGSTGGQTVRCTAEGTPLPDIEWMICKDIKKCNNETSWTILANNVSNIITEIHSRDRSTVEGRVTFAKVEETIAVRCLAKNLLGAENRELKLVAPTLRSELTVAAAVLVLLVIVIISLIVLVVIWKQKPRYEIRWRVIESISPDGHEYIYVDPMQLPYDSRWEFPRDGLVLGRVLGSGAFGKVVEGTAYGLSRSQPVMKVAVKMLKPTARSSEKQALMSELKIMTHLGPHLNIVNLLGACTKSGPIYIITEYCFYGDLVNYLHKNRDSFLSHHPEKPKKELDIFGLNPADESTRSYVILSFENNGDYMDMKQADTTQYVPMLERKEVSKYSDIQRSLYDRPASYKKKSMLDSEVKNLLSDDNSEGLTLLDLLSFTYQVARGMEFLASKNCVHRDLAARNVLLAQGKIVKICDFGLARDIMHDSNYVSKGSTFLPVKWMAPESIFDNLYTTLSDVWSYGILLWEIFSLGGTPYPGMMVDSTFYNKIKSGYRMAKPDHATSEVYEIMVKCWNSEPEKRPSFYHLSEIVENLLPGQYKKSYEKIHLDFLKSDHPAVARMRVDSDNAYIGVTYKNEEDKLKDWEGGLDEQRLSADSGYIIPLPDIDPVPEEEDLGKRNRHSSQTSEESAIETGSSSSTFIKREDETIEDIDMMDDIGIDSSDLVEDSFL", "sequence of UniProt Q00535 (whole entry, looked up)": "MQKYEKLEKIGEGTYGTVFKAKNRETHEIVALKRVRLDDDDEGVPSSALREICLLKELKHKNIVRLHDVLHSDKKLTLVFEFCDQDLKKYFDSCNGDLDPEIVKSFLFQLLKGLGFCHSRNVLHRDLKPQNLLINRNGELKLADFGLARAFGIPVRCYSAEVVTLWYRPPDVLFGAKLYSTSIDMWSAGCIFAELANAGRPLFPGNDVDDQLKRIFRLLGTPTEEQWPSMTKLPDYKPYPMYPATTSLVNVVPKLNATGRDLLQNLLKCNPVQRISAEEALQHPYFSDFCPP"}
{"data": "Set 1", "Compound": "CNC(=O)Nc1ccc2c(c1)CC[C@@]21OC(=O)N(CC(=O)N(Cc2ccc(F)cc2)[C@@H](C)C(F)(F)F)C1=O", "tested at": "1 µM"}
{"target": "MAPK1 (Homo sapiens, UniProt P28482)", "test": "cell-free assay, competition with immobilised ligand", "remaining binding [%]": 91}
{"target": "MAPK8 (Homo sapiens, UniProt P45983)", "test": "cell-free assay, competition with immobilised ligand", "remaining binding [%]": 65}
{"target": "BRSK2 (Homo sapiens, UniProt Q8IWQ3)", "test": "cell-free assay, competition with immobilised ligand", "remaining binding [%]": 70}
{"target": "Mast/stem cell growth factor receptor Kit, autoinhibited (KIT, Homo sapiens, UniProt P10721)", "test": "cell-free assay, competition with immobilised ligand", "remaining binding [%]": 97}
{"target": "PDGFRA (Homo sapiens, UniProt P16234)", "test": "cell-free assay, competition with immobilised ligand", "remaining binding [%]": 93}
{"target": "PIK3CA (Homo sapiens, UniProt P42336, M1043I)", "test": "cell-free assay, competition with immobilised ligand", "remaining binding [%]": 100}
{"target": "WNK1 (Homo sapiens, UniProt Q9H4A3)", "test": "cell-free assay, competition with immobilised ligand", "remaining binding [%]": 93}
{"target": "NEK2 (Homo sapiens, UniProt P51955)", "test": "cell-free assay, competition with immobilised ligand", "remaining binding [%]": 100}
{"target": "CDC42BPG (Homo sapiens, UniProt Q6DT37)", "test": "competition binding", "remaining binding [%]": 88}
{"target": "FGFR3 (Homo sapiens, UniProt P22607)", "test": "cell-free assay, competition with immobilised ligand", "remaining binding [%]": 82}
{"target": "RIOK1 (Homo sapiens, UniProt Q9BRS2)", "test": "cell-free assay, competition with immobilised ligand", "remaining binding [%]": 100}
{"target": "PRKCQ (Homo sapiens, UniProt Q04759)", "test": "cell-free assay, competition with immobilised ligand", "remaining binding [%]": 71}
{"target": "TGFBR1 (Homo sapiens, UniProt P36897)", "test": "cell-free assay, competition with immobilised ligand", "remaining binding [%]": 98}
{"target": "DCLK1 (Homo sapiens, UniProt O15075)", "test": "cell-free assay, competition with immobilised ligand", "remaining binding [%]": 96}
{"target": "Ribosomal protein S6 kinase alpha-6, N-terminal kinase domain (RPS6KA6, Homo sapiens, UniProt Q9UK32)", "test": "cell-free assay, competition with immobilised ligand", "remaining binding [%]": 81}
{"target": "DYRK2 (Homo sapiens, UniProt Q92630)", "test": "cell-free assay, competition with immobilised ligand", "remaining binding [%]": 88}
{"data": "Set 2", "SMILES": "O=C1NC(=O)/C(=C/c2ccc3nccnc3c2)S1", "observed": "enzyme activity", "mode": "inhibitor", "tested at": "0.5 µM", "baseline": "control"}
{"target": "cGMP-dependent protein kinase 1, isoform beta (PRKG1, Homo sapiens, UniProt Q13976)", "remaining activity [%]": 113}
{"target": "DAPK1 (Homo sapiens, UniProt P53355)", "remaining activity [%]": 105}
{"target": "Protein kinase C beta type, isoform beta-I (PRKCB, Homo sapiens, UniProt P05771)", "remaining activity [%]": 96.9}
{"target": "OXSR1 (Homo sapiens, UniProt O95747)", "remaining activity [%]": 98.4}
{"target": "CAMK2D (Homo sapiens, UniProt Q13557)", "remaining activity [%]": 93.7}
{"target": "PRKCA (Homo sapiens, UniProt P17252)", "remaining activity [%]": 102}
{"target": "TGFBR2 (Homo sapiens, UniProt P37173)", "remaining activity [%]": 108}
{"target": "CHEK2 (Homo sapiens, UniProt O96017)", "remaining activity [%]": 90.3}
{"target": "CAMKK2 (Homo sapiens, UniProt Q96RR4)", "remaining activity [%]": 72.9}
{"target": "DAPK2 (Homo sapiens, UniProt Q9UIK4)", "remaining activity [%]": 139}
{"target": "STK10 (Homo sapiens, UniProt O94804)", "remaining activity [%]": 90.5}
{"target": "Cyclin-dependent kinase 5, with p25 (CDK5, Homo sapiens, UniProt Q00535)", "remaining activity [%]": 83.2}
{"target": "STK39 (Homo sapiens, UniProt Q9UEW8)", "remaining activity [%]": 104}
{"target": "IKBKB (Homo sapiens, UniProt O14920)", "remaining activity [%]": 96.1}
{"target": "IKBKE (Homo sapiens, UniProt Q14164)", "remaining activity [%]": 99.5}
{"target": "MAPK9 (Homo sapiens, UniProt P45984)", "remaining activity [%]": 96}
{"target": "MAP3K3 (Homo sapiens, UniProt Q99759)", "remaining activity [%]": 100}
{"target": "TGFBR1 (Homo sapiens, UniProt P36897)", "remaining activity [%]": 98.5}
{"target": "Tyrosine-protein kinase Lyn, isoform B (LYN, Homo sapiens, UniProt P07948)", "remaining activity [%]": 99.2}
{"target": "NEK2 (Homo sapiens, UniProt P51955)", "remaining activity [%]": 92.2}
{"target": "GRK3 (Homo sapiens, UniProt P35626)", "remaining activity [%]": 111}
{"target": "PRKACA (Homo sapiens, UniProt P17612)", "remaining activity [%]": 97.2}
{"data": "Set 3", "cell line": "A-375", "tested at": "100 µM", "time": "18 h"}
{"Compound": "O=C(c1cc(Cc2n[nH]c(=O)c3ccccc23)ccc1F)N1CCN(C(=O)C2CC2)CC1", "viability [%]": 84.8}
{"Compound": "COc1cc2nc(N3CCN(C(=O)c4ccco4)CC3)nc(N)c2cc1OC", "viability [%]": 9.99}
{"Compound": "NC(=O)N1c2ccccc2CCc2ccccc21", "viability [%]": 78.3}
{"Compound": "CC(N)CCCC(C)(C)O (stereo not drawn)", "viability [%]": 78.7}
{"Compound": "OCCc1ccccc1", "viability [%]": 97.9}
{"Compound": "CCOC(=O)[C@H](CCc1ccccc1)N[C@H]1CCc2ccccc2N(CC(=O)O)C1=O", "viability [%]": 101}
{"Compound": "Cc1cc(=O)n(-c2ccccc2)n1C", "viability [%]": 101}
{"Compound": "CCn1cc(C(=O)O)c(=O)c2cnc(N3CCNCC3)nc21", "viability [%]": 89.6}
{"Compound": "CC(C)=CCC/C(C)=C/C=C/C(C)=C/C=C/C(C)=C/C=C/C=C(C)/C=C/C=C(C)/C=C/C=C(\\C)CCC=C(C)C", "viability [%]": 100}
{"data": "Mixed results"}
{"SMILES": "CC(C)n1cnc(-c2ccc(F)cc2)c1-c1ncc(C(=O)Nc2ccc(N3CCN(C)CC3)cc2)[nH]1", "system": "human, idiopathic pulmonary fibrosis", "setting": "30 mg once daily, trial, treatment-emergent", "endpoint": "patients with increased reticulocyte", "result": "0%"}
{"note": "Some of these lines once more (set 1):"}
{"target": "RIOK1 (Homo sapiens, UniProt Q9BRS2)", "test": "cell-free assay, competition with immobilised ligand", "remaining binding [%]": 100}
{"target": "PRKCQ (Homo sapiens, UniProt Q04759)", "test": "cell-free assay, competition with immobilised ligand", "remaining binding [%]": 71}
